Assay results of several laboratories.
Protocols differ between the studies behind these lines. ± gives the spread as reported.
Organism: Escherichia coli

With `CC1(C)S[C@@H]2[C@H](NC(=O)[C@H](N)c3ccc(O)cc3)C(=O)N2[C@H]1C(=O)O` the inhibition zone was 12.9 mm (microbial growth, disc diffusion; ATCC25922; 500 µg/mL).
With `CC(C)(O/N=C(\C(=O)N[C@@H]1C(=O)N2C(C(=O)[O-])=C(C[n+]3ccccc3)CS[C@H]12)c1csc(N)n1)C(=O)O` the FIC index was 0.187 (checkerboard; ATCC 25922; together with: magainin II).
`TRSSRAGLQWPVGRVHRLLRK-NH2 (C-amide)` gave an MIC50 of over 25.9 µg/mL (bacterial growth, broth microdilution; peptide, NCTC 9001, Mueller-Hinton broth; overnight, 37 °C).
`CC[C@H]1OC(=O)[C@H](C)[C@@H](O[C@H]2C[C@@](C)(OC)[C@@H](O)[C@H](C)O2)[C@H](C)[C@@H](O[C@@H]2O[C@H](C)C[C@H](N(C)C)[C@H]2O)[C@](C)(OC)C[C@@H](C)C(=O)[C@H](C)[C@@H](O)[C@]1(C)O` gave an FIC index of 1.5 (checkerboard; ATCC 25922; together with: magainin II).
With `CC(C)C[C@H](NC(=O)CNC(=O)[C@H](C)NC(=O)[C@H](CCCNC(=N)N)NC(=O)[C@H](CO)NC(=O)[C@H](CO)NC(=O)[C@H](CCCNC(=N)N)NC(=O)[C@@H](N)[C@@H](C)O)C(=O)N[C@@H](CCC(N)=O)C(=O)N[C@@H](Cc1c[nH]c2ccccc12)C(=O)N1CCC[C@H]1C(=O)N[C@H](C(=O)NCC(=O)N[C@@H](CCCNC(=N)N)C(=O)N[C@H](C(=O)N[C@@H](Cc1c[nH]cn1)C(=O)N[C@@H](CCCNC(=N)N)C(=O)N[C@@H](CC(C)C)C(=O)N[C@@H](CC(C)C)C(=O)N[C@@H](CCCNC(=N)N)C(=O)N[C@@H](CCCCN)C(=O)O)C(C)C)C(C)C` the fluorescence ratio was 1.29 ± 0.1 (membrane permeabilization, propidium iodide uptake; 2 µM, 5 min, pH 7.4; relative to: before addition).
The inhibition zone of `COc1cc(C=Nc2ccc([N+](=O)[O-])cc2)ccc1O` is reported as at most 16.6 mm (microbial growth, disc diffusion; 2000 µg/mL, 24 h).
`CC[C@H]1OC(=O)[C@H](C)[C@@H](O[C@H]2C[C@@](C)(OC)[C@@H](O)[C@H](C)O2)[C@H](C)[C@@H](O[C@@H]2O[C@H](C)C[C@H](N(C)C)[C@H]2O)[C@](C)(O)C[C@@H](C)C(=O)[C@H](C)[C@@H](O)[C@]1(C)O` gave an IC50 of 42 ± 10 nM (in vitro translation, SNAPf fluorescence; E. coli MRE600 70S ribosomes; 2 h, 37 °C).
Under “reduction in viable count”, `KFFKFFKFFK (peptide-PNA conjugate)` is recorded as 1 log cfu/mL (peptide, UPEC 536; 1.25 µM, 60 to 120 min).
`GWGSFFKKAAHVGKHVGKAALTHYL-NH2 (C-amide)` has an MIC50 of 0.18 ± 0.02 µg/mL (bacterial growth, broth microdilution; peptide, TOP10, Mueller-Hinton broth; overnight, 37 °C).
For `COc1cc(C=Nc2ccc(Cl)cc2Cl)ccc1O`, the inhibition zone was at most 16.6 mm (microbial growth, disc diffusion; 2000 µg/mL, 24 h).
`CC[C@H](C)[C@H](NC(=O)CNC(=O)[C@H](CCC(=O)O)NC(=O)[C@H](CO)NC(=O)[C@@H](NC(=O)[C@H](CCCNC(=N)N)NC(=O)[C@H](CCCCN)NC(=O)[C@H](CCCCN)NC(=O)[C@H](C)NC(=O)[C@H](CO)NC(=O)[C@H](CC(N)=O)NC(=O)[C@H](CCC(=O)O)NC(=O)[C@H](CC(C)C)NC(=O)[C@H](CCCCN)NC(=O)[C@H](CCCCN)NC(=O)[C@H](C)NC(=O)[C@@H](NC(=O)[C@H](CCCCN)NC(=O)[C@H](CO)NC(=O)[C@H](CC(C)C)NC(=O)[C@H](Cc1c[nH]c2ccccc12)NC(=O)[C@@H](N)CO)[C@@H](C)O)[C@@H](C)CC)C(=O)N[C@@H](C)C(=O)N[C@H](C(=O)N[C@@H](C)C(=O)N[C@H](C(=O)N[C@@H](CCC(N)=O)C(=O)NCC(=O)NCC(=O)N1CCC[C@H]1C(=O)N[C@@H](CCCNC(=N)N)C(=O)O)[C@@H](C)CC)[C@@H](C)CC` has an MIC90 of 2 µg/mL (broth microdilution; 18 h, 30 clinical isolates).
With `GIGKFLHSAKKFGKAFVGEIMNS-NH2 (C-amide)` the MIC50 was 1.79 ± 0.13 µg/mL (bacterial growth, broth microdilution; peptide, TOP10, Mueller-Hinton broth; overnight, 37 °C).
The susceptible isolates of `CC[C@H]1OC(=O)[C@H](C)[C@@H](O[C@H]2C[C@@](C)(OC)[C@@H](O)[C@H](C)O2)[C@H](C)[C@@H](O[C@@H]2O[C@H](C)C[C@H](N(C)C)[C@H]2O)[C@](C)(O)C[C@@H](C)C(=O)[C@H](C)[C@@H](O)[C@]1(C)O` is reported as 0% (hospitalized pneumonia patients, clinical isolates; Fine score 70 or more).
For `CC[C@H]1OC(=O)[C@H](C)[C@@H](O[C@H]2C[C@@](C)(OC)[C@@H](O)[C@H](C)O2)[C@H](C)[C@@H](O[C@@H]2O[C@H](C)C[C@H](N(C)C)[C@H]2O)[C@](C)(O)C[C@@H](C)/C(=N\OCOCCOC)[C@H](C)[C@@H](O)[C@]1(C)O`, the IC50 was 27 ± 7 nM (in vitro translation, SNAPf fluorescence; E. coli MRE600 70S ribosomes; 2 h, 37 °C).
`CC[C@H]1OC(=O)[C@H](C)[C@@H](O[C@H]2C[C@@](C)(OC)[C@@H](O)[C@H](C)O2)[C@H](C)[C@@H](O[C@@H]2O[C@H](C)C[C@H](N(C)C)[C@H]2O)[C@](C)(O)C[C@@H](C)CN(C)[C@H](C)[C@@H](O)[C@]1(C)O` gave a susceptible isolates of 0% (hospitalized pneumonia patients, clinical isolates; Fine score 70 or more).
`CC(=O)N(O)CCCCCNC(=O)CCC(=O)N(O)CCCCCNC(=O)CCC(=O)N(O)CCCCCNC(=O)CCC(=O)N1CCN(c2cc3c(cc2F)c(=O)c(C(=O)O)cn3C2CC2)CC1` has an MIC90 of 1.9 µM (K12; 18 h, 37 °C, iron-deficient medium with 2,2'-bipyridine, together with: 100-fold excess Fe-siderophore complex).

Repeated from above:
The susceptible isolates of `CC[C@H]1OC(=O)[C@H](C)[C@@H](O[C@H]2C[C@@](C)(OC)[C@@H](O)[C@H](C)O2)[C@H](C)[C@@H](O[C@@H]2O[C@H](C)C[C@H](N(C)C)[C@H]2O)[C@](C)(O)C[C@@H](C)C(=O)[C@H](C)[C@@H](O)[C@]1(C)O` is reported as 0% (hospitalized pneumonia patients, clinical isolates; Fine score 70 or more).
`GWGSFFKKAAHVGKHVGKAALTHYL-NH2 (C-amide)` has an MIC50 of 0.18 ± 0.02 µg/mL (bacterial growth, broth microdilution; peptide, TOP10, Mueller-Hinton broth; overnight, 37 °C).
